Results gathered from unrelated publications.
Each line is one published result; not all experiments were run side by side. ± marks the error that the study gave.

CCCC1(N)C2CC3CC(C2)CC1C3 (stereo not drawn)  inward proton current (Matrix protein 2 (Influenza A virus, UniProt C3W5Z0, N31S); blocker; concentration not given): inhibited
CN[C@@H]1[C@H](O)[C@H](NC)[C@H]2O[C@@]3(O)C(=O)C[C@@H](C)O[C@H]3O[C@@H]2[C@H]1O  MIC (Mycobacterium tuberculosis; MDR clinical isolates): > 64 µg/mL
COC(=O)C=C1SC(=NN=Cc2ccc(OC(=O)CN3C(=O)CSC3=O)cc2)NC1=O  MIC (Mycobacterium tuberculosis; Alamar blue; MDR 210): 34.6 µM
Cc1cn(C2CCN(Cc3ccnc(Oc4cccc(Cl)c4)c3)CC2)c(=O)[nH]c1=O  MIC (Mycobacterium tuberculosis; H37Rv Rv3065 (mmr) knockout): 31.2 µg/mL
O=C1c2c(O)c(=O)ccn2N([C@@H]2c3ccccc3SCc3c2ccc(F)c3F)[C@@H]2COCCN12  EC50 (Influenza A virus; viral replication, plaque reduction; A(H1N1)pdm09 rg-A/California/04/2009; mean): 0.00019 ± 2e-05 µM
NCCCNCCCCN(CCCN)/[N+]([O-])=N/O  dimerization affinity (Sensor histidine kinase PdtaS (pdtaS, Mycobacterium tuberculosis, UniProt P9WGL4, C53A)): no effect
NC(=S)NN=Cc1ccc(OC(=O)CN2C(=O)CSC2=O)c(Cl)c1  MIC (Mycobacterium tuberculosis; Alamar blue; MDR 210): 31.6 to 45.7 µM
CS(=O)(=O)Nc1ncn(-c2cc(F)c(COc3ccc(OS(=O)(=O)F)cc3)c(F)c2)n1  MIC (Mycobacterium tuberculosis; clinical strains): 0.042 µM
CC[C@@H](CO)NCCN[C@@H](CC)CO  MIC (Mycobacterium tuberculosis; Alamar blue; MDR 210): 19.6 µM
Cc1cn(C2CCN(Cc3cccc(Oc4ccccc4)n3)CC2)c(=O)[nH]c1=O  MIC (Mycobacterium tuberculosis; H37Rv Rv1258c (tap) knockout): > 250 µg/mL
NC(=O)c1cccnc1  current density (Nan-Iav channel Halyomorpha halys; ion current; HEK-293T; concentration not given): 130 pA/pF
NNC(=O)c1ccncc1  MIC (Mycobacterium tuberculosis; H37Rv gyrA D94K mutant): 0.06 µg/mL
Oc1cc(Cl)ccc1Oc1ccc(Cl)cc1Cl  MIC (Mycobacterium tuberculosis; mc2 5855): 25 µg/mL
CO[C@H]1/C=C/O[C@@]2(C)Oc3c(C)c(O)c4c(O)c(c(/C=N/N5CCN(C)CC5)c(O)c4c3C2=O)NC(=O)/C(C)=C\C=C\[C@H](C)[C@H](O)[C@@H](C)[C@@H](O)[C@@H](C)[C@H](OC(C)=O)[C@@H]1C  MIC (Mycobacterium tuberculosis; H37Rv): 0.002 µM
O=[N+]([O-])c1cn2c(n1)OC[C@@H](OCc1ccc(OC(F)(F)F)cc1)C2  MIC (Mycobacterium tuberculosis; H37Rv rpoB S450L mutant): ≤ 0.03 µg/mL
[Ca+2]  inhibition (Halyomorpha halys; inward current, inhibitor, electrophysiology; concentration not given, D721A D731A in Nan): 49.9%
CCc1oc2ccccc2c1/C=C/C(=O)N(CCOC)Cc1nc2ccccc2c(=O)[nH]1  IC50 (Enoyl-[acyl-carrier-protein] reductase [NADH] (inhA, Mycobacterium tuberculosis, UniProt P9WGR1); enzyme activity, inhibitor; pH 6.8): 14 ± 5 µM
CO[C@H]1/C=C/O[C@@]2(C)Oc3c(C)c(O)c4c(O)c(c(/C=N/N5CCN(C)CC5)c(O)c4c3C2=O)NC(=O)/C(C)=C\C=C\[C@H](C)[C@H](O)[C@@H](C)[C@@H](O)[C@@H](C)[C@H](OC(C)=O)[C@@H]1C  MIC (Mycobacterium tuberculosis; H37Rv gyrA D94K mutant): 0.03 µg/mL

For quick reference, copied from above:
COC(=O)C=C1SC(=NN=Cc2ccc(OC(=O)CN3C(=O)CSC3=O)cc2)NC1=O  MIC (Mycobacterium tuberculosis; Alamar blue; MDR 210): 34.6 µM
